Experimental data from different studies.
Numbers after ± are the reported error. ≈ marks a conversion by molar mass, not a printed value.

NC(=O)c1cn(-c2ccc(F)cc2)c2ccc(CN3CCCSCC3)cc2c1=O
unbound fraction (rat, plasma): 0.074

O=C1Nc2cccc(C#CC3(O)CCNCC3)c2/C1=C/c1cc2ccccc2[nH]1
AUC (C57BL/6 mouse, plasma; intraperitoneal, 10 mg/kg): 1200 ng·h/mL

O=C(NO)C1CSC(c2ccc(F)cc2)=N1 (centres unmarked)
solubility (aqueous buffer; pH 7.4): 37.1 mg/mL (≈ 154 mM)

COc1ccc(CC(=O)OCc2ccc(-n3cccn3)cc2)cc1F
AUC(0-t) (BALB/c mouse, plasma; oral, 10 mg/kg): 9400 ng·h/mL

CCN(Cc1cccnc1)c1ccc2c(c1)c(=O)c(C(N)=O)cn2-c1ccc(F)cc1
unbound fraction (rat, plasma): 0.067

CCN(CC)c1ccc2c(-c3ccccc3C(=O)N(C)CCCC(=O)N[C@@H](CC(C)C)C(=O)N[C@@H](CCCNC(=N)N)C(=O)N[C@@H](CCCNC(=N)N)C(=O)N[C@@H](C)C(=O)N[C@@H](CO)C(=O)N[C@@H](CC(C)C)C(=O)NCC(=O)O)c3ccc(=[N+](CC)CC)cc-3oc2c1
molar extinction coefficient (UV/Vis; phosphate buffer 25 mM; 100 µM, pH 7.4, at λmax 560 nm): > 35000 M⁻¹ cm⁻¹

COc1ccc2c(c1)S(=O)(=O)N(CCCCCc1ccccc1)C(=O)O2
stability (DMSO; room temperature): ≥ 2 weeks

NC(=O)c1cn(-c2ccc(F)cc2)c2ccc(CCc3cccnc3)cc2c1=O
unbound fraction (rat, plasma): 0.062

NC1CCN(Cc2ccn3ncnc(Nc4cccc(-c5cnco5)c4)c23)CC1
free plasma concentration (from plasma protein binding; mouse, plasma; intraperitoneal, 30 mg/kg, 90 min): 118 nM

CCCSc1nc(N[C@@H]2C[C@H]2c2ccc(F)c(F)c2)c2nnn([C@@H]3C[C@H](O)[C@@H](O)[C@H]3O)c2n1
AUC (rat, male, plasma; oral, 60 mg/kg/day ticagrelor, day 1): 45.8 µM·h

CCOc1ccccc1Nc1nnc(SCC(=O)Nc2cc(F)ccc2F)s1
remaining compound (simulated gastric fluid; 2 h, pH 1.2): > 95%

Cc1cc(NC(=O)c2cccc(NC(=O)C3=CC(C)(C)CCC3=O)c2)ccc1Nc1nccc(-c2cccnc2)n1
plasma stability (rat plasma; 1 µM): stable

Oc1ccc(-n2cc(-c3ccc4cc(OCCOCCN5CCOCC5)ccc4n3)nn2)cc1
aqueous solubility (shake-flask; Britton-Robinson buffer; 48 h, pH 6.5, 30 °C): 105 µM (≈ 48.5 µg/mL)

Nc1ncc(-c2ccc3ncnc(N4CCc5cc(F)c(Cl)cc54)c3c2)cn1
brain to plasma ratio (AUClast ratio; CD1 mouse; baseline: brain over plasma): ~9

CCCCC(=O)n1ncc(=O)c2ccccc21
remaining compound (RP-HPLC; human serum; 0.08333 h, 25 °C): < 3%

NC(=O)c1cn(-c2ccc(F)cc2)c2ccc(NCc3cccnc3)cc2c1=O
Kp,uu brain/plasma (rat; iv, 0.2 mg/kg, 15 min, cassette dosing): 0.02

O=C(NO)[C@H]1COC(c2ccc([N+](=O)[O-])cc2)=N1
logD (octanol/buffer; pH 11): -1.47

Cc1n[nH]c(C)c1CCOC(=O)c1cccc2c1oc(=O)n2C
Tmax (BALB/c mouse, plasma; oral, 10 mg/kg): 1.29 h

CC(=NN=c1[nH]c2cc(F)c(F)cc2n1C)c1ccc(F)cn1
ALP level (CD-1 IGS mice female, plasma; i.p., 20 mg/kg/day, two weeks; baseline: vehicle): no effect

O=C(NO)C1CSC(c2ccc(F)c(C(F)(F)F)c2)=N1 (centres unmarked)
logD (octanol/buffer; pH 11): 0.43

CN(C)S(=O)(=O)c1ccc(NCCCCCCN2CCC(Nc3nc4ccccc4n3Cc3ccc(F)cc3)CC2)c2nonc12
excitation wavelength (Tris-HCl assay buffer): 441 nm

O=C(OC(C(F)(F)F)C(F)(F)F)N1Cc2ccc(Br)cc2C1
plasma concentration (male CD-1 mouse, plasma; oral, 8 mg/kg, 60 min, cassette dosing): 2 ± 1 ng/mL

Clc1ccc(-c2cc(NCCCN3CCCCC3)c3ccccc3n2)cc1
remaining compound (human plasma; 1 h): 95.4%

CSc1cc(NC(=O)c2ccccn2)ccc1Cl
elimination rate constant (rat liver microsomes): 0.106 min⁻¹

Cc1c(-c2ccccc2)nn2c(=O)cc(-c3cccc(-c4nnn[nH]4)c3)[nH]c12
remaining compound (mouse liver microsomes; 1 µM, 30 min): 90.2%

CC(C)n1nnc(-c2cc(O)cc(Nc3ncnn4ccc(CN5CCC(N)CC5)c34)c2)n1
free plasma concentration (from plasma protein binding; mouse, plasma; subcutaneous, 60 mg/kg, 90 min): 60 nM

Cc1ncc(CCc2ccc3c(c2)c(=O)c(C(N)=O)cn3-c2ccc(F)cc2)cn1
Kp brain/plasma (rat; iv, 0.2 mg/kg, 15 min, cassette dosing): 0.05

O=C(NO)[C@H]1COC(c2ccc(OCc3cccc(F)c3)c(OC(F)(F)F)c2)=N1
logD (octanol/buffer; pH 11): 1.4

CC(=O)Nc1ccc2c3c(cccc13)C(=O)N(CCN1CCN(CCCCN3C(=O)CN(/N=C/c4ccc(-c5ccc(Cl)cc5)o4)C3=O)CC1)C2=O
fluorescence intensity increase (Britton-Robinson buffer; acidic pH; baseline: neutral pH): ~30 fold

O=C(O)c1cccc(-c2nc(-c3ccccc3F)c3sccn23)c1
remaining compound (human liver microsomes; 1 µM, 30 min): 60.2%

CCOC(=O)CC[C@H](NC(=O)c1ccc(N(C)Cc2cnc3nc(N)nc(N)c3n2)cc1)C(=O)OCC
logP: 2.14

NC(=O)c1cn(-c2ccc(F)cc2)c2ccc(CN3CCSCC3)cc2c1=O
unbound fraction (rat, plasma): 0.205
